Published values pooled from the literature.
Compare with care: the assays were run in different laboratories. “And” joins repeats or separate records; there may be more than shown.
Target: Serine/threonine-protein kinase pim-2 (PIM2, Homo sapiens, UniProt Q9P1W9)
UniProt Q9P1W9, sequence (whole entry, unmodified, looked up): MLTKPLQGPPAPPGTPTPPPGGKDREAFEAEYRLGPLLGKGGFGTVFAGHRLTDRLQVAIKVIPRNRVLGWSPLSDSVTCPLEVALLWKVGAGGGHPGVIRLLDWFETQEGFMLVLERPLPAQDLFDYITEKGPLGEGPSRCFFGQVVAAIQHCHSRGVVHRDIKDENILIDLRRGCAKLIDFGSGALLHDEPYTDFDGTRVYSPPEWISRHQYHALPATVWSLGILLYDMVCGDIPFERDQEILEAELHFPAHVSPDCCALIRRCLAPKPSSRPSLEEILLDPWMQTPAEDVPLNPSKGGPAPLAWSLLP

CNC1C[S+]2CC[S+]3CC[S+](C1)[Ru-4]321([N]=C=S)[n]2c3ccc(OC)cc3c3c4c(c5cc(F)c[n+]1c5c32)C(=O)NC4=O (centres unmarked) — remaining binding (KinomeScan; 0.1 µM; relative to: untreated): 19%
Cc1cccc(O[C@H]2CCC[C@@H](C(C)CNCc3ccncc3)C2)c1 (relative stereo) — inhibition (enzyme activity, inhibitor; 1 µM): 3%
CN1CCN(Cc2ccc(-c3ccc(CO[C@H]4CCC[C@@H]4NC(=O)c4cc(-c5cnn(C)c5)cnc4N)cc3)cc2)CC1 — inhibition (enzyme activity, inhibitor; 0.1 µM): -19%
C=CC(=O)Nc1cccc(-c2cnc3[nH]cc(C(=O)NC(C)(C)C)c3n2)c1 — inhibition (kinase activity; 0.1 µM): 1% and 0%
Cc1cnc2nc1Nc1cccc(c1)COC/C=C/COCc1cc(ccc1OCCN1CCOCC1)N2 — remaining binding (binding; 0.1 µM): 87%
COc1ccc(C(=O)/C=C/c2ccccc2-c2c[nH]c3ccc(C#N)cc23)c(O)c1 — inhibition (enzyme activity, inhibitor; 20 µM): 24%
CN1CCN(Cc2ccc(NC(=O)c3cccc(C#Cc4cnc(N)c5ncccc45)c3)cc2C(F)(F)F)CC1 — remaining binding (cell-free assay, competition with immobilised ligand; 0.5 µM): 100%
O=C(Cc1ccc(OCc2ccccc2)cc1)NC1(C(=O)O)CCN(C(=O)c2ccc(-c3cccc(Cl)c3)cc2)CC1 — activity vs control (enzyme activity, inhibitor; 10 µM): 110%
Cc1ccc(C)c(-c2ccc3nc(NC(=O)C4CCCCC4)nn3c2)c1 — remaining activity (enzyme activity, Dundee kinase panel; 10 µM): 91%
COCC12C(=O)NC3C4(C(OC)CC1O)C1CC5(O)C(OC)C(O)C(OC(C)=O)(C1C5OC(=O)c1ccccc1)C3(O)C(OC)C24 (centres unmarked) — remaining activity (kinase activity, inhibitor, ProQinase kinase profiling; 25 µM; relative to: control): 72% and 81%
COc1ccc(NC(=O)Nc2ccc3c(c2)C(=O)N(C(C)CO)CC(C)C(CN(C)Cc2ccc4c(c2)OCO4)O3)cc1 (centres unmarked) — remaining activity (kinase activity, KinaseProfiler; 0.03 µM, species human; relative to: control): 102%
CNS(=O)(=O)Nc1nccc(Cc2c(C)c3ccc(Oc4ncccc4F)cc3oc2=O)c1F — remaining binding (binding, competition with immobilised ligand; 10 µM): 84%
Cc1cccc(-c2ccc3nc(NC(=O)C4CCCCC4)nn3c2)c1 — remaining activity (enzyme activity, Dundee kinase panel; 10 µM): 100%
NC(=O)[C@@H](O)C[C@H]1CCc2sc3ncnc(O[C@H]4CC[C@H](N5CCOCC5)CC4)c3c21 — inhibition (enzyme activity, inhibitor; 10 µM): 0%
Cc1ccc(-c2c(/C=C(\C#N)C(=O)NC(C)C)n(CCCO)c3ncnc(N)c23)cc1 — remaining binding (cell-free assay, competition with immobilised ligand; 1 µM): 95%
CN1CC[C@@H](COc2cnc(C#N)cc2-c2ccn3nc(NC(=O)C4CC4)cc3c2)C1 — inhibition (enzyme activity, inhibitor; 1 µM): -2%
CCn1cc(C(=O)O)c(=O)c2c(N)c(F)c(NC3CCCCC3)cc21 — inhibition (kinase activity; 0.1 µM, together with: ATP at Km): 15.6%
COc1cc(Nc2nc(C)cc(-c3cnn4nc(OC)ccc34)n2)cc(C(F)(F)F)c1 — remaining activity (inhibitor; 1 µM; relative to: control): 95%
CCN1CCN(Cc2ccc(C(=O)Nc3ccc(C)c(NCc4cnc5[nH]ccc5c4OC)c3)cc2C(F)(F)F)CC1 — remaining binding (binding, competition with immobilised ligand; 1 µM): 90%
Nc1ncc2c(n1)-c1c([nH]c3ccc(C4=CCOCC4)cc13)CCC2 — remaining binding (binding, competition with immobilised ligand; 1 µM): 100%
